Assay results collected from several papers.
± marks the error that the study gave.
T1: DNA hairpin, HEG linker; GTTATATCTTGATATAAC
T2: DNA G4 pilE G-quadruplex (Neisseria gonorrhoeae); GGGTGGGTTGGGTGGG

Compound	target	assay	test system	conditions	scale	endpoint	value
O=Cc1ccc(-n2ccnc2)c(Cl)c1	14-3-3 protein gamma, with Pin1 peptide (YWHAG, Homo sapiens, UniProt P61981)	fluorescence anisotropy	–	100 µM	reference: DMSO	stabilization factor	1.3 fold
COc1cc(C2CC(=O)Nc3nc(N)[nH]c(=O)c32)ccc1O (stereo not drawn)	uncharacterized protein (Leishmania donovani, UniProt A0A3Q8IA09)	competitive ITC	–	added: aspartate 60 µM	–	ΔH	-17.2 ± 1.3 kcal/mol
CN(C)c1ccc(-c2cc3cc(I)ccc3o2)cn1	Islet amyloid polypeptide, aggregated (IAPP, Homo sapiens, UniProt P10997)	saturation binding	–	–	–	Bmax	7130 ± 943 pmol/mg protein
CC(C)CCC[C@@H](C)[C@H]1CC[C@H]2[C@@H]3CC=C4C[C@@H](OS(=O)(=O)O)CC[C@]4(C)[C@H]3CC[C@]12C	Prothrombin (F2, Homo sapiens, UniProt P00734)	enzyme activity, inhibitor	–	0 (unit not given), pH 7.4, 25 °C, no Tween, added: Spectrozyme TH	–	Hill slope	1.6
CC(C)C[C@H](NC(=O)[C@H](CC(C)C)NC(=O)[C@H](CCCNC(=N)N)NC(=O)[C@@H](N)CS)C(=O)O	PPO3 (Agaricus bisporus, UniProt C7FF04)	enzyme activity, inhibitor	–	50 µM	–	remaining activity	84.2%
Cc1ncsc1-c1ccc([C@@H]2CCCCCCNC(=O)C[C@@H]3N=C(c4ccc(cc4)OCCCCCC(=O)N[C@@H](C(C)(C)C)C(=O)N4C[C@H](O)C[C@H]4C(=O)N2)c2c(sc(C)c2C)-n2c(C)nnc23)cc1	Bromodomain-containing protein 4, short isoform (BRD4, Homo sapiens, UniProt O60885)	degrader, immunoblotting	PC-3	100 nM, 2 h, short isoform	–	degradation	86%
O=C(O)Cc1cccc(O)c1	p-hydroxyphenylacetate 3-hydroxylase, reductase component (C1-hpah, Acinetobacter baumannii, UniProt Q6Q271)	ITC	–	pH 7	–	-TΔS	12.9 ± 2.1 kcal/mol
CCCC[C@H](NC(=O)COCC(=O)NCCCOCCOCCOCCCNC(=O)CNC(=O)[C@@H]1CCCN1C(=O)CNC(=O)[C@@H]1CCCN1C(=O)CNC(=O)[C@@H]1CCCN1C(=O)CNC(=O)[C@@H]1CCCN1C(=O)CNC(=O)[C@@H]1CCCN1C(=O)CNC(=O)[C@@H]1CCCN1C(=O)CNC(=O)[C@@H]1CCCN1C(=O)CNC(=O)[C@@H]1CCCN1C(=O)CNC(=O)[C@@H]1CCCN1C(=O)CNC(=O)[C@@H]1CCCN1C(=O)CNC(=O)[C@@H]1CCCN1C(=O)CNC(=O)[C@@H]1CCCN1C(=O)CNC(=O)[C@@H]1CCCN1C(=O)CNC(=O)[C@@H]1CCCN1C(=O)CNC(=O)[C@@H]1CCCN1C(=O)CNC(=O)[C@@H]1CCCN1C(=O)CNC(=O)[C@@H]1CCCN1C(=O)CNC(=O)[C@@H]1CCCN1C(=O)COCC(=O)NCCCOCCOCCOCCCNC(=O)[C@H](Cc1c[nH]c2ccccc12)NC(=O)[C@H](CCCNC(=N)N)NC(=O)[C@@H](Cc1ccccc1)NC(=O)[C@H](Cc1c[nH]cn1)NC(=O)[C@H](CCC(=O)O)NC(=O)[C@H](CCCC)NC(=O)[C@H](CO)NC(C)=O)C(=O)NCC(=O)N[C@@H](Cc1c[nH]c2ccccc12)C(=O)N[C@@H](CCCC)C(=O)N[C@@H](CC(=O)O)C(=O)N[C@@H](Cc1ccccc1)C(N)=O	CCKBR/MC4R (Homo sapiens, UniProt P32239+P32245)	bivalent binding	cells expressing CCK2R and MC4R	added: Eu-DTPA-CCK-8	reference: single- over dual-expressing cells	IC50 ratio	2 fold
COc1ccc(S(=O)(=O)n2nc(OC(=O)c3cccc(-c4ccccc4)c3)cc2N)cc1	Genome polyprotein, NS2B-NS3 protease (dengue virus type 2, UniProt P29990)	ESI-TOF MS	–	20 µM, 1 h, 25 °C	reference: DMSO control	protein mass shift	180 Da
CC(C)(Cn1cc(-c2cnc3cccnn23)nn1)c1c[nH]c2ccccc12	Glucagon-like peptide 1 receptor (Rattus norvegicus, UniProt P32301)	positive allosteric modulator, measured: cAMP	INS-1E	10 µM, added: GLP-1(7-36)	reference: GLP-1 alone	fold shift of EC50	27.2 fold
NS(=O)(=O)c1ccc(N2N=C(C(F)(F)F)CC2c2ccc(F)cc2F)cc1 (stereo not drawn)	Prostaglandin G/H synthase 1 (Canis lupus familiaris, UniProt Q8HZR1)	enzyme activity in cells, inhibitor	–	–	–	IC20	17600 nM
O=C(Cn1c2ccccc2c2ccncc21)N(c1ccc(F)cc1)c1ccc(F)cc1	Proteasome subunit alpha type-2/Proteasome subunit alpha type-6, 20S proteasome (Homo sapiens, UniProt P25787+P60900)	proteolysis, activator, fluorogenic peptide	purified 20S proteasome	up to 30 µM, added: Suc-LLVY-AMC, Z-LLE-AMC, Boc-LRR-AMC	reference: vehicle	maximum fold increase	5.5 ± 2.2
C[n+]1cccc2cc(/C=N/NC(=O)c3ccc4ccc5ccc(C(=O)N/N=C/c6ccc7c(ccc[n+]7C)c6)nc5c4n3)ccc21	T1, DNA hairpin, HEG linker	Thiazole Orange displacement, competitor, fluorescent indicator displacement	–	pH 7.2, KCl 100 mM	–	IC50	> 2500 nM
CN(C)c1ncnc2c1ncn2[C@@H]1O[C@@H]2COP(=O)(O)O[C@H]3[C@@H](O)[C@H](n4cnc5c(N(C)C)ncnc54)O[C@@H]3COP(=O)(O)O[C@H]2[C@H]1O	ydaO riboswitch wild type (Bacillus subtilis)	competition gel-shift	–	concentration not given	reference: c-di-AMP	ΔΔG binding	> 8.1 kcal/mol
C[C@]12CC[C@@H]3c4cc(I)c(O)c(I)c4CC[C@H]3[C@@H]1CCC2=O	AKR1C1 (Homo sapiens, UniProt Q04828)	enzyme activity, inhibitor, absorbance	–	100 µM, pH 9	–	inhibition	25%
CC1=N/C(=C\c2ccc3cc(N(C)C)ccc3c2)C(=O)N1C	T2, DNA G4 pilE G-quadruplex (Neisseria gonorrhoeae)	fluorescence titration	–	pH 7.4, K+ 100 mM	–	Kd	2790 nM
N#CN1CC[C@H](C(=O)Nc2ncc(N3CCOCC3)s2)C1	UCHL1 (Homo sapiens, UniProt P09936)	probe labeling, inhibitor	A549	5 µM, added: Rh-Ub-PA probe	reference: control	DUB activity	decreased
CNc1ccccc1C(=O)O[C@H]1C[C@H](n2cnc3c(N)ncnc32)O[C@@H]1COP(=O)(O)OP(=O)(O)O	Unconventional myosin-Va (Gallus gallus, UniProt Q02440, D297C/G292C/I296C/S293C/V295G)	stopped-flow FRET, linear fit intercept	–	25 °C, added: MgCl2 2 mM	–	dissociation rate constant	8.08 ± 0.6 s⁻¹

Excerpt of the above:
Compound	target	assay	test system	conditions	scale	endpoint	value
O=C(Cn1c2ccccc2c2ccncc21)N(c1ccc(F)cc1)c1ccc(F)cc1	Proteasome subunit alpha type-2/Proteasome subunit alpha type-6, 20S proteasome (Homo sapiens, UniProt P25787+P60900)	proteolysis, activator, fluorogenic peptide	purified 20S proteasome	up to 30 µM, added: Suc-LLVY-AMC, Z-LLE-AMC, Boc-LRR-AMC	reference: vehicle	maximum fold increase	5.5 ± 2.2
